{"data": "Measurements collected from several papers", "Nuclear receptor subfamily 2 group C member 2 ligand-binding domain": "Nuclear receptor subfamily 2 group C member 2, ligand-binding domain (Homo sapiens, UniProt P49116)", "YWHAG/RELA phospho-Ser45 p65 peptide": "YWHAG/RELA, phospho-Ser45 p65 peptide (Homo sapiens, UniProt P61981+Q04206)", "note": "Compare with care: the assays were run in different laboratories. Several values in a cell are separate wells, animals, samples, runs or records. ± gives the spread as reported.", "sequence of UniProt P49116 (whole entry, looked up)": "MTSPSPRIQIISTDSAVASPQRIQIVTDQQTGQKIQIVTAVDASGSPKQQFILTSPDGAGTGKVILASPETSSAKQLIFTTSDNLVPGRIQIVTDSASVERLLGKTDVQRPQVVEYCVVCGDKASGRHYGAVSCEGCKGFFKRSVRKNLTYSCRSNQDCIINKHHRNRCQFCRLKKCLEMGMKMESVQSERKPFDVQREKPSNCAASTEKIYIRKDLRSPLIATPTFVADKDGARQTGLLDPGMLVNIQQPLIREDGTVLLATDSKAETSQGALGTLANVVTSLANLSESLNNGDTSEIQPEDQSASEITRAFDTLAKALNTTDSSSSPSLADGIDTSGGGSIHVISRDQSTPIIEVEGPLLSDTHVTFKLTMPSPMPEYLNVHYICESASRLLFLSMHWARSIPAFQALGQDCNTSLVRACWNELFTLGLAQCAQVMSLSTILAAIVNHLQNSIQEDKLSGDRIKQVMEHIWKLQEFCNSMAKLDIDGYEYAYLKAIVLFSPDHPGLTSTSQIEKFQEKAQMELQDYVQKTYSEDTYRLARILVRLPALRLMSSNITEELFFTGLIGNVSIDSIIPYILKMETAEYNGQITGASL", "sequence of UniProt P61981 (whole entry, looked up)": "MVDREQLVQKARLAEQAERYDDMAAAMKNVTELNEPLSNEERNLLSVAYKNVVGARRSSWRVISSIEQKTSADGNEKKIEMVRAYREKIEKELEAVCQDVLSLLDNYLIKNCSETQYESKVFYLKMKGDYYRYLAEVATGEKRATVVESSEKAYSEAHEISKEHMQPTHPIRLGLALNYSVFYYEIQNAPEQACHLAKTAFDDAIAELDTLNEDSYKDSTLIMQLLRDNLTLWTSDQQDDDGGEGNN", "sequence of UniProt P02911 (whole entry, looked up)": "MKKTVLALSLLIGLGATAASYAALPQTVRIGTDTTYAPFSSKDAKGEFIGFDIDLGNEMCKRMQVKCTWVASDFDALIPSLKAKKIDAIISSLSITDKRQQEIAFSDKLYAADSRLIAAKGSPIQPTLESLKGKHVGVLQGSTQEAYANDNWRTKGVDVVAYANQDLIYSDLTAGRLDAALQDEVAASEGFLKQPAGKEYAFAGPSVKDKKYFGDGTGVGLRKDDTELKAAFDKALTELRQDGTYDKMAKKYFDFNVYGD", "sequence of UniProt Q04206 (whole entry, looked up)": "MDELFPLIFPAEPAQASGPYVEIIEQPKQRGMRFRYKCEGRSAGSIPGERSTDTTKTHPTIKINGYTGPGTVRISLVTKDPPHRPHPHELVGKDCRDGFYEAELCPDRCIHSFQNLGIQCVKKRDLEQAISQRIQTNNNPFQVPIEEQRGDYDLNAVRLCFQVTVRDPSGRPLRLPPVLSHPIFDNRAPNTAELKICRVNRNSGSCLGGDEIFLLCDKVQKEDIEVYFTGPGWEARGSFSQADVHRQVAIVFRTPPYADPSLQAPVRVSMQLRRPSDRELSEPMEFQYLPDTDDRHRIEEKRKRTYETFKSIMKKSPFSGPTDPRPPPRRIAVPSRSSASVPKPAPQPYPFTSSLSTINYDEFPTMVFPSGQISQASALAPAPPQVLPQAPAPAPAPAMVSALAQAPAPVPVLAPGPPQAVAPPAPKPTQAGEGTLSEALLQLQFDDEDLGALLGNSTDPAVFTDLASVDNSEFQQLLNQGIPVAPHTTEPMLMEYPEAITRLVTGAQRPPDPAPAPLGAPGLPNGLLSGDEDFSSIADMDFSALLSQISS", "sequence of UniProt Q60932 (whole entry, unmodified, looked up)": "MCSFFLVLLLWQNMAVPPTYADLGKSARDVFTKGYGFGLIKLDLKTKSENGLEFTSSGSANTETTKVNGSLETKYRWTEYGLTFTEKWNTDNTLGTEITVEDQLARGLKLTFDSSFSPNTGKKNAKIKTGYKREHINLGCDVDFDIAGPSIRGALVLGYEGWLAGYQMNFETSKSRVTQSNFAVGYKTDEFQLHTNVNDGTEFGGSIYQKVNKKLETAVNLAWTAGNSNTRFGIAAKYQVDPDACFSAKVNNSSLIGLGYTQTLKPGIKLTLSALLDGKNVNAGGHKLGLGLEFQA", "sequence of UniProt Q94521 (whole entry, looked up)": "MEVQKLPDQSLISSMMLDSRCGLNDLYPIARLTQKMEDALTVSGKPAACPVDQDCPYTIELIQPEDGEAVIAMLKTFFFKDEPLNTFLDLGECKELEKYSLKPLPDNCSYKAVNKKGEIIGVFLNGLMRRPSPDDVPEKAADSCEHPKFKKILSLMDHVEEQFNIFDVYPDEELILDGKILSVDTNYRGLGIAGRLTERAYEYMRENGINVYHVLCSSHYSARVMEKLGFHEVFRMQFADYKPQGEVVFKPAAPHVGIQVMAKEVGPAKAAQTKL", "sequence of UniProt Q9Y3Z3 (whole entry, looked up)": "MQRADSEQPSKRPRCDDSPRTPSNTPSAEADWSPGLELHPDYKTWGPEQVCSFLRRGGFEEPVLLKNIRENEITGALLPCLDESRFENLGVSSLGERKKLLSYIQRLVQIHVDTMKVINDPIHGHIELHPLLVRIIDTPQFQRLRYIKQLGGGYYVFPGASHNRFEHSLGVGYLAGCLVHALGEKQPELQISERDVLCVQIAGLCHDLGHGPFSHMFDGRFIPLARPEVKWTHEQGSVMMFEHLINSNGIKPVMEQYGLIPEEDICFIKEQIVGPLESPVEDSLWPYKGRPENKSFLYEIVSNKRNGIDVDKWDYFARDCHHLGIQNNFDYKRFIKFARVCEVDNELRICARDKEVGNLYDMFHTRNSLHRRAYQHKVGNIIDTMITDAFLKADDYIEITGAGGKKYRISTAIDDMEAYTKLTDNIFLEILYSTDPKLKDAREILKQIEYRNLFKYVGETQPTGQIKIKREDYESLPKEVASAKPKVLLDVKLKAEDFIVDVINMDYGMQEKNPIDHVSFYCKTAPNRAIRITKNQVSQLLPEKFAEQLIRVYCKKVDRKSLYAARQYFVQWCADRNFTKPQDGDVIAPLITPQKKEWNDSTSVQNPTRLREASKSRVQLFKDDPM", "sequence of UniProt Q16774 (whole entry, unmodified, looked up)": "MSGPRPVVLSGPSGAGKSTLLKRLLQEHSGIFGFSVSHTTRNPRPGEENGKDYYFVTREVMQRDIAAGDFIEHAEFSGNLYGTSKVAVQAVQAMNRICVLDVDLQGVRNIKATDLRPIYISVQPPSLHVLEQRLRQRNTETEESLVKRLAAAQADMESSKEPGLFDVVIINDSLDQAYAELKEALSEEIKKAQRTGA", "sequence of UniProt Q13555 (whole entry, looked up)": "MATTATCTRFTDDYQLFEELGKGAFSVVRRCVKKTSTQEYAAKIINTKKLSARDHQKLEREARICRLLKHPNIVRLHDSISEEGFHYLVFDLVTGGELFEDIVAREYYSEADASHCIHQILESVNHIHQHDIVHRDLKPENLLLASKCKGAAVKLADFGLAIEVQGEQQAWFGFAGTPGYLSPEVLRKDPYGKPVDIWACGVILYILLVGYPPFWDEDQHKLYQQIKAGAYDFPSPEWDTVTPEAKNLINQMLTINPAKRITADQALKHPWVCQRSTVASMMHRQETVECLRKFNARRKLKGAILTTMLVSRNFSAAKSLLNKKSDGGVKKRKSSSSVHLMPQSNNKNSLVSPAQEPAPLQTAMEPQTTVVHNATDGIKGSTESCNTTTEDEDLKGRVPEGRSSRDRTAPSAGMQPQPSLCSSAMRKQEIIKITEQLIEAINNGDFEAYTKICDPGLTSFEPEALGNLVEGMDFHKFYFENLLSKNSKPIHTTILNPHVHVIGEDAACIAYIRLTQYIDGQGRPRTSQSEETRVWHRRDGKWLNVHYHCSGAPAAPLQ", "sequence of UniProt P30988 (whole entry, looked up)": "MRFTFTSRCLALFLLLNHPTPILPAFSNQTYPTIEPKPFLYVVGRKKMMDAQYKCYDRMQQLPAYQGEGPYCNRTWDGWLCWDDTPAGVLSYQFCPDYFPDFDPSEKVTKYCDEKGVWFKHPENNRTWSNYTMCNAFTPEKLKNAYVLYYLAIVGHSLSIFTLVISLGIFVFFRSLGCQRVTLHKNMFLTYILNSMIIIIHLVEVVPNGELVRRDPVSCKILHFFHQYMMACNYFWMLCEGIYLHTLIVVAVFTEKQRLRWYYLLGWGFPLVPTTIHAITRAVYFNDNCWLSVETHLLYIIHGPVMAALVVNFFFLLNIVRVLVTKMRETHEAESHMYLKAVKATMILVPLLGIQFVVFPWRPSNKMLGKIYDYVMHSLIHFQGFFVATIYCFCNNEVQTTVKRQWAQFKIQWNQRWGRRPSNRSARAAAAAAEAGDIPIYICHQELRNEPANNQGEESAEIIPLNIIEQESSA", "sequence of UniProt Q9UQM7 (whole entry, unmodified, looked up)": "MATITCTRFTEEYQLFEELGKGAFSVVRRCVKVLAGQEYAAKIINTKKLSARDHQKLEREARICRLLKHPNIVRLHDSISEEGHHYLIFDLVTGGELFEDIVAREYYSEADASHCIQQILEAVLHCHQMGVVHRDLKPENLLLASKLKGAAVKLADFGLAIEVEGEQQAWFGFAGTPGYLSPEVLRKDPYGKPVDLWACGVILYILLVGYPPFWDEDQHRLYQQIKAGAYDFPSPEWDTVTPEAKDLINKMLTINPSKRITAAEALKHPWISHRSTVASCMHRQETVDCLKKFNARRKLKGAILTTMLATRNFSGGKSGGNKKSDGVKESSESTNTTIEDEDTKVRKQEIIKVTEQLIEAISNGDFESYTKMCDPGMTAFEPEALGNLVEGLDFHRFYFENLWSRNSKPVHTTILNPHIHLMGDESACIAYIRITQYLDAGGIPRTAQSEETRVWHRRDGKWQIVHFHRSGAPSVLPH", "sequence of UniProt P16442 (whole entry, unmodified, looked up)": "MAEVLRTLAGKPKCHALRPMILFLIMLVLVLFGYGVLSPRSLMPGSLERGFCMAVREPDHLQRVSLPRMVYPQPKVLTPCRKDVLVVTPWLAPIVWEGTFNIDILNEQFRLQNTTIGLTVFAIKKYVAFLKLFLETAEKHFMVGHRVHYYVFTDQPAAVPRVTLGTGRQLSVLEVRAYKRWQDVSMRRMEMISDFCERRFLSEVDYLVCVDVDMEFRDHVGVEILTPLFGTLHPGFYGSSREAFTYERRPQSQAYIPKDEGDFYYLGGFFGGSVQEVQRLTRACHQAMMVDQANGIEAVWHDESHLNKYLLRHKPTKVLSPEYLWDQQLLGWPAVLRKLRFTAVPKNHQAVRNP"}
{"Structure (SMILES)": "CN(C)CCCOc1nn(Cc2ccccc2)c2ccccc12", "target": "Nuclear receptor subfamily 2 group C member 2 ligand-binding domain", "assay": "SPR imaging", "quantity": "Kd", "result": "1.16 nM"}
{"Structure (SMILES)": "CC(C)(COP(=O)(O)OP(=O)(O)OC[C@H]1O[C@@H](n2cnc3c(N)ncnc32)[C@H](O)[C@@H]1OP(=O)(O)O)[C@@H](O)C(=O)NCCC(=O)NCCS", "target": "N-alpha-acetyltransferase 16, NatA auxiliary subunit (NAA16, Homo sapiens, UniProt Q6N069)", "assay": "competitor, competition MS pulldown", "system": "SW-620 cell lysate", "setting": "together with: photo-immobilized beads", "quantity": "Kd", "result": "1380 nM"}
{"Structure (SMILES)": "CCN(CC)C(=O)C1(c2ccccc2)CC1CN (centres unmarked)", "target": "Nuclear receptor subfamily 2 group C member 2 ligand-binding domain", "assay": "SPR imaging", "quantity": "Kd", "result": "1.33 nM"}
{"Structure (SMILES)": "CC(=O)N[C@@H](COP(=O)(O)O)C(=O)N1CCC[C@H]1C(=O)N[C@H](C(=O)N[C@@H](Cc1ccccc1)C(N)=O)[C@@H](C)O", "target": "Breast cancer type 1 susceptibility protein, tandem BRCT domains (BRCA1, Homo sapiens, UniProt P38398)", "assay": "NMR titration", "setting": "pH 7.0, 30 °C", "quantity": "Kd", "result": "~1000 nM"}
{"Structure (SMILES)": "Nc1nc2c(ncn2[C@@H]2O[C@@H]3COP(=O)(O)O[C@H]4[C@@H](OC(=O)NCCCCCCNC(=O)c5ccc6c(c5)C(=O)OC65c6ccc(O)cc6Oc6cc(O)ccc65)[C@H](n5cnc6c(=O)[nH]c(N)nc65)O[C@@H]4COP(=O)(O)O[C@H]3[C@H]2O)c(=O)[nH]1", "target": "Uncharacterized protein (Caulobacter vibrioides, UniProt Q9ABT2)", "assay": "binding, fluorescence competition", "setting": "together with: 2'-Fluo-AHC-c-di-GMP", "quantity": "Kd", "result": "2200 ± 500 nM"}
{"Structure (SMILES)": "Nc1nc2c(ncn2[C@@H]2O[C@H](COP(=O)(O)OP(=O)(O)O)[C@@H](O)[C@H]2O)c(=O)[nH]1", "target": "GUK1 (Homo sapiens, UniProt Q16774, S13A)", "assay": "binding, ITC", "setting": "25 °C", "quantity": "Kd", "result": "74000 ± 4000 nM"}
{"Structure (SMILES)": "Nc1nc2c(ncn2[C@@H]2O[C@H](COP(=O)(O)OP(=O)(O)OP(=O)(O)O)[C@@H](O)[C@H]2O)c(=O)[nH]1", "target": "Deoxynucleoside triphosphate triphosphohydrolase SAMHD1, allosteric site A1 (SAMHD1, Homo sapiens, UniProt Q9Y3Z3)", "assay": "fluorescence anisotropy displacement", "setting": "allosteric site A1", "quantity": "Kd", "result": "52000 ± 14000 nM"}
{"Structure (SMILES)": "O=Cc1ccc(C(=O)N2CCC(CCO)CC2)cc1", "target": "YWHAG/RELA phospho-Ser45 p65 peptide", "assay": "ternary complex formation, stabilizer, fluorescence anisotropy", "quantity": "EC50", "result": "> 1000 µM"}
{"Structure (SMILES)": "O=c1ccn([C@@H]2O[C@H](COP(=O)(O)OP(=O)(O)O)[C@@H](O)[C@H]2O)c(=O)[nH]1", "target": "ABO (Homo sapiens, UniProt P16442, G235S/G268A/L266M/R176G/W181E)", "assay": "methyl-TROSY NMR titration lineshape analysis", "setting": "apo mutant enzyme", "quantity": "Kd", "result": "738000 ± 6000 nM"}
{"Structure (SMILES)": "CCCN1CCN(c2ccc(-c3cncc(Cl)c3N3CCC4(CCNC4=O)CC3)cc2)CC1", "target": "CAMK2G (Homo sapiens, UniProt Q13555)", "assay": "SILAC displacement", "system": "LS174T-L5 cell lysate", "quantity": "Kd", "result": "> 11400 nM"}
{"Structure (SMILES)": "C[S+](CC[C@H](N)C(=O)O)C[C@H]1O[C@@H](n2cnc3c(N)ncnc32)[C@H](O)[C@@H]1O (some centres unmarked)", "target": "O-methyltransferase (Sorghum bicolor, UniProt A0A1B6PFV1)", "assay": "ITC", "setting": "25 °C, apo enzyme", "quantity": "Kd", "result": "112000 ± 15000 nM"}
{"Structure (SMILES)": "C[C@H](CCC(=O)O)[C@H]1CC[C@H]2[C@@H]3CC[C@@H]4C[C@H](O)CC[C@]4(C)[C@H]3CC[C@]12C", "target": "Nuclear receptor subfamily 2 group C member 2 ligand-binding domain", "assay": "SPR imaging", "quantity": "Kd", "result": "20.7 nM"}
{"Structure (SMILES)": "NC(=O)C1=CN([C@@H]2O[C@H](COP(=O)(O)OP(=O)(O)OC[C@H]3O[C@@H](n4cnc5c(N)ncnc54)[C@H](O)[C@@H]3O)[C@@H](O)[C@H]2O)C=CC1", "target": "Non-selective voltage-gated ion channel VDAC1 (Vdac1, Mus musculus, UniProt Q60932, K249A)", "assay": "binding, fluorescence polarization", "quantity": "Kd", "result": "6970 ± 160 nM"}
{"Structure (SMILES)": "C[C@@H]1C/C=C/C=C/C=C/C=C/[C@H](O[C@@H]2O[C@H](C)[C@@H](O)[C@H](N)[C@@H]2O)C[C@@H]2O[C@](O)(C[C@@H](O)C[C@H]3O[C@@H]3/C=C/C(=O)O1)C[C@H](O)[C@H]2C(=O)O", "target": "Nuclear receptor subfamily 2 group C member 2 ligand-binding domain", "assay": "SPR imaging", "quantity": "Kd", "result": "9.09 nM"}
{"Structure (SMILES)": "CC(C)C[C@@H]1NC(=O)[C@H](C(C)C)NC(=O)CNC(=O)[C@H](CC(N)=O)NC(=O)[C@@H]2CCCN2C(=O)[C@H](Cc2ccc(O)cc2)NC(=O)[C@H](CCCNC(=N)N)NC(=O)[C@H](Cc2ccccc2)NC(=O)[C@@H](NC(=O)[C@H](CCCCN)NC(=O)[C@@H]2CCCN2C(=O)[C@H](C)NC(=O)[C@H](C)NC(=O)[C@@H](N)Cc2ccc(O)cc2)CSSC[C@@H](C(=O)N[C@H](C(N)=O)[C@@H](C)O)NC(=O)[C@H](C)NC1=O", "target": "Alpha-2-HS-glycoprotein, asialo (AHSG, Bos taurus, UniProt P12763)", "assay": "binding, isothermal titration calorimetry", "setting": "pH 7.0, 25 °C, together with: asialofetuin", "quantity": "Kd", "result": "61300 nM"}
{"Structure (SMILES)": "O=Cc1ccc([N+](=O)[O-])c(N2CCCC(O)C2)c1 (centres unmarked)", "target": "YWHAG/RELA phospho-Ser45 p65 peptide", "assay": "ternary complex formation, stabilizer, fluorescence anisotropy", "quantity": "EC50", "result": "> 1000 µM"}
{"Structure (SMILES)": "N[C@@H](CCC(=O)N[C@@H](CS)C(=O)NCC(=O)O)C(=O)O", "target": "Cu(I)", "assay": "binding, bicinchoninic acid competition", "setting": "250 µM, together with: bicinchoninic acid 40 µM", "quantity": "Kd", "result": "0.0308 nM"}
{"Structure (SMILES)": "O=c1c(-c2ccc(O)cc2)coc2cc(O)cc(O)c12", "target": "Nuclear receptor subfamily 2 group C member 2 ligand-binding domain", "assay": "SPR imaging", "quantity": "Kd", "result": "0.122 nM"}
{"Structure (SMILES)": "O=C(O)Cc1cn2nc(-c3ccc(Cl)cc3)ccc2n1", "target": "Calcium/calmodulin-dependent protein kinase type II subunit alpha, hub domain (CAMK2A, Homo sapiens, UniProt Q9UQM7, E355Q/F467M/I414M/I464H/T354N/T412N)", "assay": "surface plasmon resonance", "setting": "pH 6, MES buffer", "quantity": "Kd", "result": "1400 nM"}
{"Structure (SMILES)": "Cn1c([N+](=O)[O-])cnc1COC(N)=O", "target": "Nuclear receptor subfamily 2 group C member 2 ligand-binding domain", "assay": "SPR imaging", "quantity": "Kd", "result": "47 nM"}
{"Structure (SMILES)": "COC(=O)C[C@@H]1N=C(c2ccc(Cl)cc2)c2c(sc(C(=O)NCCOCCNC(=O)C[C@@H]3N=C(c4ccc(Cl)cc4)c4c(sc(C)c4C)-n4c(C)nnc43)c2C)-n2c(C)nnc21", "target": "Bromodomain testis-specific protein, BD2 (BRDT, Homo sapiens, UniProt Q58F21)", "quantity": "Kd", "result": "0.066 nM"}
{"Structure (SMILES)": "CCC1=C(C)CN(C(=O)NCCc2ccc(S(=O)(=O)NC(=O)N[C@H]3CC[C@H](C)CC3)cc2)C1=O", "target": "Nuclear receptor subfamily 2 group C member 2 ligand-binding domain", "assay": "SPR imaging", "quantity": "Kd", "result": "0.251 nM"}
{"Structure (SMILES)": "C[C@H](N)C(=O)N[C@@H](CCCNC(=N)N)C(=O)N[C@H](C(=O)N[C@@H](C)C(=O)N[C@@H](CCC(N)=O)C(=O)N[C@H](C(=O)N[C@@H](C)C(=O)N[C@@H](CCCNC(=N)N)C(=O)N[C@@H](CCCCN)C(=O)N[C@@H](CO)C(=O)O)[C@@H](C)O)[C@@H](C)O", "target": "Transcriptional regulator ATRX (ATRX, Homo sapiens, UniProt P46100, F284Y/K251R)", "assay": "binding", "quantity": "Kd", "result": "305000 nM"}
{"Structure (SMILES)": "COc1cc(CCC(=O)CC(=O)CCc2ccc(O)c(OC)c2)ccc1O", "target": "TRIP13 (Homo sapiens, UniProt Q15645)", "quantity": "Kd", "result": "45.5 nM"}
{"Structure (SMILES)": "CC(C)C[C@H](NC(=O)[C@H](CCC(=O)O)NC(=O)[C@H](CCC(N)=O)NC(=O)[C@H](CO)NC(=O)CCCCCNC(=S)Nc1ccc2c(c1)C(=O)OC21c2ccc(O)cc2Oc2cc(O)ccc21)C(=O)N[C@@H](Cc1c[nH]cn1)C(=O)N[C@@H](CCCCN)C(=O)N[C@@H](CC(C)C)C(=O)N[C@@H](CCC(N)=O)C(=O)N[C@H](C(=O)N[C@@H](Cc1ccc(O)cc1)C(=O)N1CCC[C@H]1C(=O)N[C@@H](CCCNC(=N)N)C(=O)N[C@H](C(=O)N[C@@H](CC(N)=O)C(=O)N[C@H](C(=O)NCC(=O)N[C@@H](CO)C(=O)NCC(=O)N[C@H](C(=O)N1CCC[C@H]1C(N)=O)[C@@H](C)O)[C@@H](C)O)[C@@H](C)O)[C@@H](C)O", "target": "Calcitonin receptor, extracellular domain (CALCR, Homo sapiens, UniProt P30988)", "assay": "peptide binding, fluorescence polarization", "setting": "pH 7.4, receptor ECD alone", "quantity": "Kd", "result": "676 nM"}
{"Structure (SMILES)": "NCCc1ccc(O)c(O)c1", "target": "speck (Drosophila melanogaster, UniProt Q94521)", "assay": "binding, isothermal titration calorimetry", "quantity": "Kd", "result": "12600 nM"}
{"Structure (SMILES)": "C[C@@H]1C[C@H]2[C@@H]3CCC4=CC(=O)C=C[C@]4(C)[C@@]3(Cl)[C@@H](O)C[C@]2(C)[C@@]1(OC(=O)c1ccco1)C(=O)CCl", "target": "Nuclear receptor subfamily 2 group C member 2 ligand-binding domain", "assay": "SPR imaging", "quantity": "Kd", "result": "0.0761 nM"}
{"Structure (SMILES)": "CCCCCCCC(=O)OC[C@H](COP(=O)(O)O[C@@H]1[C@H](O)[C@H](O)[C@@H](OP(=O)(O)O)[C@H](OP(=O)(O)O)[C@H]1O)OC(=O)CCCCCCC", "target": "Kv7.2/Kv7.3(EEE) mutant channel", "assay": "channel opening, activator, model fit of open probability", "setting": "model 5, K2, efficacy fixed to WT", "quantity": "Kd", "result": "55600 nM"}
{"Structure (SMILES)": "N=C(N)NCCC[C@H](N)C(=O)O", "target": "argT (Salmonella enterica, UniProt P02911)", "assay": "binding, isothermal titration calorimetry", "setting": "two-sets-of-sites model, site 2, mixture with SAR11_1210", "quantity": "Kd", "result": "9.83 nM and 10.5 nM"}
{"note": "Repeated from above:"}
{"Structure (SMILES)": "O=Cc1ccc(C(=O)N2CCC(CCO)CC2)cc1", "target": "YWHAG/RELA phospho-Ser45 p65 peptide", "assay": "ternary complex formation, stabilizer, fluorescence anisotropy", "quantity": "EC50", "result": "> 1000 µM"}
{"Structure (SMILES)": "COC(=O)C[C@@H]1N=C(c2ccc(Cl)cc2)c2c(sc(C(=O)NCCOCCNC(=O)C[C@@H]3N=C(c4ccc(Cl)cc4)c4c(sc(C)c4C)-n4c(C)nnc43)c2C)-n2c(C)nnc21", "target": "Bromodomain testis-specific protein, BD2 (BRDT, Homo sapiens, UniProt Q58F21)", "quantity": "Kd", "result": "0.066 nM"}
{"Structure (SMILES)": "CCC1=C(C)CN(C(=O)NCCc2ccc(S(=O)(=O)NC(=O)N[C@H]3CC[C@H](C)CC3)cc2)C1=O", "target": "Nuclear receptor subfamily 2 group C member 2 ligand-binding domain", "assay": "SPR imaging", "quantity": "Kd", "result": "0.251 nM"}
{"Structure (SMILES)": "CC(C)(COP(=O)(O)OP(=O)(O)OC[C@H]1O[C@@H](n2cnc3c(N)ncnc32)[C@H](O)[C@@H]1OP(=O)(O)O)[C@@H](O)C(=O)NCCC(=O)NCCS", "target": "N-alpha-acetyltransferase 16, NatA auxiliary subunit (NAA16, Homo sapiens, UniProt Q6N069)", "assay": "competitor, competition MS pulldown", "system": "SW-620 cell lysate", "setting": "together with: photo-immobilized beads", "quantity": "Kd", "result": "1380 nM"}
